Assay results gathered from unrelated publications.
Each line is one published result; not all experiments were run side by side.
Target: Prostaglandin G/H synthase 2 (PTGS2, Homo sapiens, UniProt P35354)
Sequence of UniProt P35354 (whole entry, looked up): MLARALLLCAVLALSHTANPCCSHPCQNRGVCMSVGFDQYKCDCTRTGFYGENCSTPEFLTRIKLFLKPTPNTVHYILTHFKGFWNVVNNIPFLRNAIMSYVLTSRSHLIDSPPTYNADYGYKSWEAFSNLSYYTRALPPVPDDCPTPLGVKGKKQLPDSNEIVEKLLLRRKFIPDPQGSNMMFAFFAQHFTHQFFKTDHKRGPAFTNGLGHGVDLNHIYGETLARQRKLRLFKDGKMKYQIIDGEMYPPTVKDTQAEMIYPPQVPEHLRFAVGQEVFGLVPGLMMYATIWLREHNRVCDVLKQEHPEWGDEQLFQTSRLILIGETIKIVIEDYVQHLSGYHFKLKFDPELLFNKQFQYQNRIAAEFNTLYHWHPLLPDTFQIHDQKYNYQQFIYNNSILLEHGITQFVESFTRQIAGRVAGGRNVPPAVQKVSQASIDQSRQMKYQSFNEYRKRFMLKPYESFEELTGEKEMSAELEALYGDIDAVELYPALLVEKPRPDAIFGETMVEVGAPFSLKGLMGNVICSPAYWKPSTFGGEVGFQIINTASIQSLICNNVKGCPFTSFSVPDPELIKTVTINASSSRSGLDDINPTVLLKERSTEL
Effect on: enzyme activity
Mode: inhibitor

| SMILES | assay | IC50 [µM] |
| --- | --- | --- |
| O=C1CCCCC1C(C[N+](=O)[O-])c1ccccc1 (stereo not shown) | – | 49.7 |
| NS(=O)(=O)c1ccc(-n2cc(CNc3ccc(F)cc3)c(-c3ccc(OCc4ccccc4)cc3)n2)cc1 | absorbance | 2.87 |
| Fc1ccc(/N=c2\oc3ccccc3cc2-c2ccccc2)cc1 | – | 0.0111 |
| Fc1ccc(NCc2cn(-c3ccccc3)nc2-c2ccc(OCc3ccccc3)cc2)cc1Cl | absorbance | 4.25 |
| N#Cc1ccc(/N=c2\oc3ccccc3cc2-c2ccccc2)cc1 | – | 0.0192 |
| Cc1ccc(NCc2cn(-c3ccc(S(N)(=O)=O)cc3)nc2-c2ccc(OCc3ccccc3)cc2)cc1 | absorbance | 1.79 |
| c1ccc(-c2cc3ccccc3o/c2=N\c2ccc3ccccc3c2)cc1 | – | 0.0162 |
| Fc1ccc(NCc2cn(-c3ccccc3)nc2-c2ccc(OCc3ccccc3)cc2)cc1 | absorbance | 4.12 |
| O=[N+]([O-])c1ccc(/N=c2\oc3ccccc3cc2-c2ccccc2)cc1 | – | 0.0131 |
| NS(=O)(=O)c1ccc(-n2cc(CNc3ccccc3)c(-c3ccc(OCc4ccccc4)cc3)n2)cc1 | absorbance | 3.04 |
| O=C(c1ccncc1)N1N=C2/C(=C/c3ccc4ccccc4c3)CCCC2C1c1ccc2ccccc2c1 (stereo not shown) | – | 0.088 |
| O=C(O)Cc1cc(F)ccc1Nc1c(Cl)cccc1Cl | fluorescence | 7.8 |
| Clc1ccccc1NCc1cn(-c2ccccc2)nc1-c1ccc(OCc2ccccc2)cc1 | absorbance | 5.03 |
| Clc1cccc(Cl)c1Nc1ccccc1Cc1nnn[nH]1 | fluorescence | 12 |
| COc1c(OC2OC(CO)C(O)C(O)C2O)cc2c(=O)oc3c4c(cc5c(=O)oc1c2c35)OCO4 (stereo not shown) | fluorescence | 170 |
| c1ccc(-c2cc3ccccc3o/c2=N\c2cccnc2)cc1 | – | 0.0096 |
| Clc1cnccn1 | fluorescence | 178 |
| c1ccc(-c2ccc(/N=c3\oc4ccccc4cc3-c3ccccc3)cc2)cc1 | – | 0.0113 |
| COc1cc2c(=O)oc3c(OC)c(O)cc4c(=O)oc(c1OC)c2c34 | fluorescence | 13.9 |
| O=C(O)C(F)(F)c1ccccc1Nc1c(Cl)cccc1Cl | fluorescence | 23 |
| Brc1ccc(/N=c2\oc3ccccc3cc2-c2ccccc2)cc1 | – | 0.0124 |
| COc1cc(O)c2c(c1)O[C@H](c1ccccc1)CC2=O | fluorescence | 34.1 |

Repeated from above:
| SMILES | assay | IC50 [µM] |
| --- | --- | --- |
| NS(=O)(=O)c1ccc(-n2cc(CNc3ccccc3)c(-c3ccc(OCc4ccccc4)cc3)n2)cc1 | absorbance | 3.04 |
| O=C(c1ccncc1)N1N=C2/C(=C/c3ccc4ccccc4c3)CCCC2C1c1ccc2ccccc2c1 (stereo not shown) | – | 0.088 |
| O=C(O)Cc1cc(F)ccc1Nc1c(Cl)cccc1Cl | fluorescence | 7.8 |
